Measured values gathered from unrelated publications.
Each numbered part is a random draw from the data of one study; scales do not carry over between parts. Changes are numbered by the printed parent chain.

Study 1 — method: universal PBM; form: double-stranded DNA, one strand shown; sample: in vitro; tested at: not given; direction: higher = stronger binding; endpoint: E-score
Target: Sal-like protein 4, full length isoform B (SALL4, Homo sapiens, UniProt Q9UJQ4-2, residues 1-616)
Setting: 8-mer, flanks averaged, mean of replicates
Target sequence (chain): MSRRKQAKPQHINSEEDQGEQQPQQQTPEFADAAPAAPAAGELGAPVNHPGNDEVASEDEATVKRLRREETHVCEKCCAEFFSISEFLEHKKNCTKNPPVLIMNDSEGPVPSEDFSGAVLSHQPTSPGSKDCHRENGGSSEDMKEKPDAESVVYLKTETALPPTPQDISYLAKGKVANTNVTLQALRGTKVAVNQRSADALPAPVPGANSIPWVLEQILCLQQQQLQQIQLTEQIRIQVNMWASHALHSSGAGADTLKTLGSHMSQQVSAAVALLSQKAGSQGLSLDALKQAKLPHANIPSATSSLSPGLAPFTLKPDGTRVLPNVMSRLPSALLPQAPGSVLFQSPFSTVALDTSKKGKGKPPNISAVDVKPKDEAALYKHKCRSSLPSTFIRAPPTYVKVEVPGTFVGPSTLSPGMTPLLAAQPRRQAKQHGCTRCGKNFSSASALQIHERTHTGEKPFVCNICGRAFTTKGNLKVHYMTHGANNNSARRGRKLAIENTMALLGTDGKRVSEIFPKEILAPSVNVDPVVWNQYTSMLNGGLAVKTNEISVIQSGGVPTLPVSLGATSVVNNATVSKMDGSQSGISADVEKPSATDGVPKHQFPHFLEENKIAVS
GACGACTC: -0.311
GTATGCAC: 0.0882
GGGTCCCA: -0.227
AAGTGATT: 0.214
GGAGCATA: 0.00755
GTCCTTGA: -0.00719
CCTCCAGC: -0.154
ATAGTGTG: 0.0826
GTCCAGGA: -0.0422
ACCCAGCA: -0.26
GGACATCC: -0.221
ACGCCCCG: -0.386
TAGCCGAA: -0.129
GGATTAGA: -0.0486
GCGCCAGA: -0.243
ACTAATCG: 0.0193
CTGAGGCA: -0.136
GCGTGACA: -0.0947
CCATCTCC: 0.036
ATTTGCCA: 0.0928
GGAGACCA: -0.265
ACGCTCGA: -0.0559
CAGTTACG: -0.0741
TACTGGGA: 0.0845
CCCGCAAC: -0.146

Study 2 — target: CCNE2, cyclin fold, Cln2 fusion (human); method: yeast growth competition, sequencing; sample: yeast; setting: weak parent motif; reference: not given; direction: higher = stronger binding; endpoint: normalised enrichment score
Parent: MICAL3 docking peptide (human); LQLRRQLSFSEDS
F9I: 0.181
E11W: 0.62
F9S: -0.255
S10M: 0.593
R4E: -0.422
R5F: 0.111
Q2Y: 0.372
L3F: 1.07
D12A: 0.345
L3D: 0.0338
L3H: 0.594
Q6M: 0.638
R5I: 0.366
R4S: 0.382
L7S: -0.223
E11M: 0.132
S10P: 0.364
Q6L: 0.327
Q2A: 0.151
S10D: 0.143
R4Y: 0.302
E11V: 0.397
Q2N: 0.123
S10H: 0.0902
S8D: 0.172

Study 3 — method: protein binding microarray; form: double-stranded DNA, one strand shown; sample: in vitro; tested at: not given; reference: not given; direction: higher = stronger binding; endpoint: E-score
Target: Histone acetyltransferase KAT6A, winged helix 1, GST fusion (KAT6A, Homo sapiens, UniProt Q92794, residues 1-85)
Setting: 8-mer, flanks averaged, mean of 2 arrays, mostly near background
Construct (chain): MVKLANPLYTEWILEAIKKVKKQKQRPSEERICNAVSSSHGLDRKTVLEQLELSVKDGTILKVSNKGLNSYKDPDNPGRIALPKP
ATAAACCA: -0.0391
ATTTTAGA: -0.104
AACGGAAA: 0.159
AATTGACC: 0.0037
ACCAGGCG: -0.069
CCACCAAA: -0.158
AAATGCCG: 0.341
CTACTAGA: -0.14
CTTTCGTA: -0.0868
AAGGAGTC: -0.258
CTATTTTA: 0.00449
CCATAGTA: -0.151
ATTAGTTA: -0.0683
AGCGACCT: 0.0437
GTCGTCGA: 0.0104
CTCACTCC: -0.106
GGGCACAA: -0.0384
CCCAGACA: -0.243

Study 4 — method: DHFR PCA, deep sequencing; sample: yeast; with: (+)-ABA 0.032 µM; reference: wild-type fitted maximum; direction: higher = stronger binding; endpoint: relative binding score
Target: ABI1, truncated, D143A, DHFR fusion (Arabidopsis thaliana)
Setting: methotrexate growth selection, single substitutions
Parent: PYL1, truncated, DHFR fusion (Arabidopsis thaliana); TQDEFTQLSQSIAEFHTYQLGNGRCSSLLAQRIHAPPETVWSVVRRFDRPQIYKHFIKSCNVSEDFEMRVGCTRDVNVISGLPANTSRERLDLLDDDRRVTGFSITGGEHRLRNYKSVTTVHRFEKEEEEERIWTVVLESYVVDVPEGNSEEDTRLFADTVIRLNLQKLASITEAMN; partner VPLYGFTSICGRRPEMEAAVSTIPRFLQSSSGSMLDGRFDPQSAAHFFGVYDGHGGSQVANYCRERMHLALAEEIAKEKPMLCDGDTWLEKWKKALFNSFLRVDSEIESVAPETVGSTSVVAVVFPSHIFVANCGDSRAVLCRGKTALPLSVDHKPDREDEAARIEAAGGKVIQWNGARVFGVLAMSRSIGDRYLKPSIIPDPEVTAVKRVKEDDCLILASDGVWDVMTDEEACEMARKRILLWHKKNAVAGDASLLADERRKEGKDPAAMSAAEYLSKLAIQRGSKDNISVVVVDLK
V161D: 0.749%
L29N: -1.29%
H16E: 3.8%
F5R: 8.47%
G148S: -0.978%
A35S: 3.57%
S80G: 9.33%
T120C: 3.76%
K58C: -4.79%
D153H: 1.7%
Y18W: 17.7%
H34G: 2.26%
V43M: 2.98%
D153W: -2.85%
W41T: 0.582%
V62Q: -8.26%

Repeated from above (study 4):
V43M: 2.98%
F5R: 8.47%
D153H: 1.7%
G148S: -0.978%
K58C: -4.79%
T120C: 3.76%
Y18W: 17.7%
L29N: -1.29%
A35S: 3.57%
W41T: 0.582%
